Measurements collected from several papers.
Protocols differ between the studies behind these lines.

With Cc1cc(Nc2cc3ncccc3c(N[C@@H]3C[C@H]4CC[C@@H](C3)N4CCC#N)n2)n[nH]1 the AUC(0-24) was 20.9 ng·h/mL (human, plasma; 300 mg single dose, mean).
C[C@@H]1CCO[C@H]2Cn3cc(C(=O)NCc4ccc(F)cc4F)c(=O)c(O)c3C(=O)N12 has an AUC(0-24) of 43800 ng·h/mL (human paediatric patients, weight sample E to under sample F kg, plasma; oral, 35 mg film-coated tablet, steady state, geometric mean, population PK post-hoc, N 8).
For COc1cc(C(=O)NC2CCN(C)CC2)c(F)cc1Nc1ncc(C(F)(F)F)c(Oc2cccc3c2C(=O)N(C)C3)n1, the AUC(0-24) was 2.86 µM·h (human patients; oral, 50 mg, cycle 1 day 1, geometric mean).
The AUC(0-24) of CC(C)(Sc1ccncc1-c1ccc(C#N)c2ccccc12)C(=O)O is reported as 54.8 ng·h/mL (human, plasma; oral, 2.5 mg once daily, together with: febuxostat 0 mg).
CC(=O)O.NC(=O)c1cnc(N[C@@H]2CCCC[C@@H]2N)nc1Nc1cccc(-n2nccn2)c1 gave an AUC(0-24) of 106 ng·h/mL (human, plasma; oral, 11 mg once daily).
CO[C@H]1CC[C@H](N2C(=O)CNc3ncc(-c4ccc(C(C)(C)O)nc4)nc32)CC1 gave an AUC(0-24) of 379 ng·h/mL (human, plasma; oral, 15 mg, day -1, geometric mean).
For Cc1nc(-c2ccc(OCC(C)C)c(C#N)c2)sc1C(=O)O, the AUC(0-24) was 1260 ng·h/mL (human, plasma; oral, 10 mg once daily, together with: verinurad 2.5 mg).
N#Cc1ccc2c(c1)[C@H]1CCCN(C(=O)c3ccc4[nH]cnc4c3)[C@H]1C2 has an AUC(0-24) of 132 µM·h (human, plasma; oral, 240 mg once daily, after first dose).
Cc1ccc([C@@H]2O[C@H](CO)[C@@H](O)[C@H](O)[C@H]2O)cc1Cc1ccc(-c2ccc(F)cc2)s1 has an AUC(0-24) of 19000 ng·h/mL (human, maintenance hemodialysis patients; oral, 300 mg once daily, day 8, steady state, median).
With CC(C)[C@H](N)C(=O)NCCCS(=O)(=O)O the AUC(0-24) was 7870 ng·h/mL (human both sexes, plasma; oral, 256.5 mg once daily days 8-14, day 14, fasted capsule).

A few entries again:
For Cc1nc(-c2ccc(OCC(C)C)c(C#N)c2)sc1C(=O)O, the AUC(0-24) was 1260 ng·h/mL (human, plasma; oral, 10 mg once daily, together with: verinurad 2.5 mg).
